Results pooled from the literature.
Every numbered part comes from another study and shows a few of its results, in no order. Positions count from the first letter of the parent shown.
UniProt P41145, sequence (whole entry, looked up): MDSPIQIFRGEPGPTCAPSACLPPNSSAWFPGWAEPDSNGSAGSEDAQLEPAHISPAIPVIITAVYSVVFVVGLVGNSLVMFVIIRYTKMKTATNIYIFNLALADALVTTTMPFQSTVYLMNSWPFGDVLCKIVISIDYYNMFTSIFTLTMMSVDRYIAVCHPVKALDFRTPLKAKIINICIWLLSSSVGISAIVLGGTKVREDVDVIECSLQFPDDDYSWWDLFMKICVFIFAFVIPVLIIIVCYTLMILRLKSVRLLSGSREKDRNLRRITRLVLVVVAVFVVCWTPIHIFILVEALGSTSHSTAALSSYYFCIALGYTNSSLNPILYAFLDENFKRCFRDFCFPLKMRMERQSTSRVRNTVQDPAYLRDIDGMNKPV
UniProt P23975, sequence (whole entry, looked up): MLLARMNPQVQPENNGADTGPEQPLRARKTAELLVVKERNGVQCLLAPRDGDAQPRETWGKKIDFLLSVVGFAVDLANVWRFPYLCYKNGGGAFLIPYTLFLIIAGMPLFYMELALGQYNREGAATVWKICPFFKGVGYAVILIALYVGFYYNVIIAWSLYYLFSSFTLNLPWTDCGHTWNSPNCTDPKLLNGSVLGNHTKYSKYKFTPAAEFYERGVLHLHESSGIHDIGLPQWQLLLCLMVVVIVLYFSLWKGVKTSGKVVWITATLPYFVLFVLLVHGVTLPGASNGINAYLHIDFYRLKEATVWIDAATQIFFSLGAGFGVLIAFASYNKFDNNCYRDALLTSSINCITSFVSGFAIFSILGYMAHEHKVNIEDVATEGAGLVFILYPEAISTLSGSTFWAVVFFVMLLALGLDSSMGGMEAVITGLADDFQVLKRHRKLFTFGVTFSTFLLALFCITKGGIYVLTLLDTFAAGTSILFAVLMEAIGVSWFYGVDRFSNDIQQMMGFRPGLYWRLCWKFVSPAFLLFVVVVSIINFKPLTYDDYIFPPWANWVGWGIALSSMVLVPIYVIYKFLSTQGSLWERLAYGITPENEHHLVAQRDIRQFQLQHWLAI
UniProt P35372, sequence (whole entry, looked up): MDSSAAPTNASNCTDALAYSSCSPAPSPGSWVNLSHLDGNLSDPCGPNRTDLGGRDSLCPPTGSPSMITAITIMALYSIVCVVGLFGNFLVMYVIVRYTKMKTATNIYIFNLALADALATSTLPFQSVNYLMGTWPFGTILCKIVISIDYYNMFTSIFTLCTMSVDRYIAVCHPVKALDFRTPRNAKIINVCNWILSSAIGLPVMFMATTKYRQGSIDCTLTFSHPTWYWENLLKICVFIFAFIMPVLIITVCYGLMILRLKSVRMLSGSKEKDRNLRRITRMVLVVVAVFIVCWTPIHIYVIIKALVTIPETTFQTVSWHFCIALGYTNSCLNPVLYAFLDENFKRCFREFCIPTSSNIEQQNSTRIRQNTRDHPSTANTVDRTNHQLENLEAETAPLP
UniProt Q01959, sequence (whole entry, looked up): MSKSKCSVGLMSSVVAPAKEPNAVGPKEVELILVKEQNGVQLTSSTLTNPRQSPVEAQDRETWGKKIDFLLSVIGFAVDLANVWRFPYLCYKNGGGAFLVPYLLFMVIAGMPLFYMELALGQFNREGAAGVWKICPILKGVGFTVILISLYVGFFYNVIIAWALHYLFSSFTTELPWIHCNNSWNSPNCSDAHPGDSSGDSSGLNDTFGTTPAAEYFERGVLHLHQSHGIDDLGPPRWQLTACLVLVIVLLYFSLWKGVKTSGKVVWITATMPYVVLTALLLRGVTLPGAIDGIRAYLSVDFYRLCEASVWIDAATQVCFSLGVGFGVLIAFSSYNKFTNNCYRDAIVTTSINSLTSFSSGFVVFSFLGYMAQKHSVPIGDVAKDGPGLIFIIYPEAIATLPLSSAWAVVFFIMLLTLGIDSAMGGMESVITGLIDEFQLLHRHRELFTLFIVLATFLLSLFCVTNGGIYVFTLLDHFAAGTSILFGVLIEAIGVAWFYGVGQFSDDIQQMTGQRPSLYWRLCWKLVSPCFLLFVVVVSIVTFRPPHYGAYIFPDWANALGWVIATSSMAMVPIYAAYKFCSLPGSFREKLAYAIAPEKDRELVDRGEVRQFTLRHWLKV
UniProt P20309, sequence (whole entry, looked up): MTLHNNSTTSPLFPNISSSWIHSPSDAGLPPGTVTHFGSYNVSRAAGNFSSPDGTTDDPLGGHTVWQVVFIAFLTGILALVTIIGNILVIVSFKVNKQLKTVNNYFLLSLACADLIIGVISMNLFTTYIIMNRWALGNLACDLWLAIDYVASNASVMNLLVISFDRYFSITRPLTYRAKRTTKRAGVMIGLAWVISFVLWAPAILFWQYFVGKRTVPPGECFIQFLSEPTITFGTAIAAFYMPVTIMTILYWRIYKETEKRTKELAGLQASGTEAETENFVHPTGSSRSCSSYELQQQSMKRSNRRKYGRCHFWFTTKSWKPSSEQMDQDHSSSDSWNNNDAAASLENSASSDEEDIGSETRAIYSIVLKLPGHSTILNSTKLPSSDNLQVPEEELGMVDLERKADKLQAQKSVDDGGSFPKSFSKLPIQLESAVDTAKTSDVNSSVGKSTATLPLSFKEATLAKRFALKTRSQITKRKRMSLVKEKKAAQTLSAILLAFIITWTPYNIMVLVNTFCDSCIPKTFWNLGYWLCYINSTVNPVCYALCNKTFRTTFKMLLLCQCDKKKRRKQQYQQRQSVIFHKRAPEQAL

Set 1 — effect on: binding; method: radioligand binding; concentration: 10 µM; endpoint: inhibition
Structure (SMILES): CNCc1ccccc1-c1csc([C@H](C)Nc2nc(C)nc3cc(OC)c(OC)cc23)c1
Sodium-dependent noradrenaline transporter (SLC6A2, Homo sapiens, UniProt P23975): 69.3%
Kappa-type opioid receptor (OPRK1, Homo sapiens, UniProt P41145): 64.4%
Muscarinic acetylcholine receptor M3 (CHRM3, Homo sapiens, UniProt P20309): 48%
Mu-type opioid receptor (OPRM1, Homo sapiens, UniProt P35372): 67.3%
Sodium-dependent dopamine transporter (SLC6A3, Homo sapiens, UniProt Q01959): 70.3%
Sodium-dependent serotonin transporter (SLC6A4, Homo sapiens, UniProt P31645): 56.2%
D(1B) dopamine receptor (DRD5, Homo sapiens, UniProt P21918): 36.6%

Set 2 — effect on: peptide-MHC binding; form: peptide; concentration: concentration not given; endpoint: binding
Target: HLA class I histocompatibility antigen, C alpha chain, allele C*04:01 (Homo sapiens, UniProt P10321)
KITDFGIAK: inactive
SYLTVHQMI: inactive
FADINGKLY: inactive
FARQNNGAF: inactive
FYYNAFHWA: inactive
YEHYFVFAA: inactive
RIRAANLPI: inactive
WYYDFHFFV: inactive

Set 3 — target: CCNB2, cyclin fold, Cln2 fusion (human); method: yeast growth competition, sequencing; sample: yeast; notes: weak parent motif; reference: not given; reading: higher = stronger binding; endpoint: normalised enrichment score; parent: viral docking peptide; KGVKRKLFAEDSS
KGVKRKLFREDSS [A9R]: 1.18
KGVKWKLFAEDSS [R5W]: 0.274
KGVKRKLFAEWSS [D11W]: 1.16
KGVKRKEFAEDSS [L7E]: 0.639
KGVKRKLFTEDSS [A9T]: 0.759
KGVKRKLFAWDSS [E10W]: 0.87
KGVKRKLFADDSS [E10D]: 1.35
KGVFRKLFAEDSS [K4F]: 0.364

Mixed results
O=C(O)CCCc1ccc(N(CCCl)CCCl)cc1
activity class (Sarcocystis neurona; parasite activity; 10 µM, 96 h): inactive
